Results pooled from the literature.
Lines come from different studies, so protocols differ. No end group written: not given here.
CDK3: CDK3 (Homo sapiens, UniProt Q00526)
B1: erenumab; V domains shown; sequence looked up; VH QVQLVESGGGVVQPGRSLRLSCAASGFTFSSFGMHWVRQAPGKGLEWVAVISFDGSIKYSVDSVKGRFTISRDNSKNTLFLQMNSLRAEDTAVYYCARDRLNYYDSSGYYHYKYYGMAVWGQGTTVTVSS; VL QSVLTQPPSVSAAPGQKVTISCSGSSSNIGNNYVSWYQQLPGTAPKLLIYDNNKRPSGIPDRFSGSKSGTSTTLGITGLQTGDEADYYCGTWDSRLSAVVFGGGTKLTVL
B2: JUN (Homo sapiens, UniProt P05412); sequence looked up; chain MTAKMETTFYDDALNASFLPSESGPYGYSNPKILKQSMTLNLADPVGSLKPHLRAKNSDLLTSPDVGLLKLASPELERLIIQSSNGHITTTPTPTQFLCPKNVTDEQEGFAEGFVRALAELHSQNTLPSVTSAAQPVNGAGMVAPAVASVAGGSGSGGFSASLHSEPPVYANLSNFNPGALSSGGGAPSYGAAGLAFPAQPQQQQQPPHHLPQQMPVQHPRLQALKEEPQTVPEMPGETPPLSPIDMESQERIKAERKRMRNRIAASKCRKRKLERIARLEEKVKTLKAQNSELASTANMLREQVAQLKQKVMNHVNSGCQLMLTQQLQTF
B3: Il2 Y59K (Mus musculus, UniProt P04351); chain APTSSSTSSSTAEAQQQQQQQQQQQQHLEQLLMDLQELLSRMENYRNLKLPRMLTFKFKLPKQATELKDLQCLEDELGPLRHVLDLTQSKSFQLEDAENFISNIRVTVVKLKGSDNTFECQFDDESATVVDFLRRWIAFCQSIISTSPQ
B4: UGT1A9 (Homo sapiens, UniProt O60656); chain GKLLVVPMDGSHWFTMRSVVEKLILRGHEVVVVMPEVSWQLGRSLNCTVKTYSTSYTLEDLDREFKAFAHAQWKAQVRSIYSLLMGSYNDIFDLFFSNCRSLFKDKKLVEYLKESSFDAVFLDPFDNCGLIVAKYFSLPSVVFARGILCHYLEEGAQCPAPLSYVPRILLGFSDAMTFKERVRNHIMHLEEHLLCHRFFKNALEIASEILQTPVTEYDLYSHTSIWLLRTDFVLDYPKPVMPNMIFIGGINCHQGKPLPMEFEAYINASGEHGIVVFSLGSMVSEIPEKKAMAIADALGKIPQTVLWRYTGTRPSNLANNTILVKWLPQNDLLGHPMTRAFITHAGSHGVYESICNGVPMVMMPLFGDQMDNAKRMETKGAGVTLNVLEMTSEDLENALKAVINDKSYKENIMRLSSLHKDRPVEPLDLAVFWVEFVMRHKGAPHLRPAAHDLTWYQYHSLDVIGFLLAVVLTVAFITFKCCAYGYRKCLGKKGRVKKAHKSKTH
B5: ATF1 (Homo sapiens, UniProt P18846); sequence looked up; chain MEDSHKSTTSETAPQPGSAVQGAHISHIAQQVSSLSESEESQDSSDSIGSSQKAHGILARRPSYRKILKDLSSEDTRGRKGDGENSGVSAAVTSMSVPTPIYQTSSGQYIAIAPNGALQLASPGTDGVQGLQTLTMTNSGSTQQGTTILQYAQTSDGQQILVPSNQVVVQTASGDMQTYQIRTTPSATSLPQTVVMTSPVTLTSQTTKTDDPQLKREIRLMKNREAARECRRKKKEYVKCLENRVAVLENQNKTLIEELKTLKDLYSNKSV
B6: RTT103 1-131 R108N (Saccharomyces cerevisiae, UniProt Q05543); chain MPFSSEQFTTKLNTLEDSQESISSASKWLLLQYRDAPKVAEMWKEYMLRPSVNTRRKLLGLYLMNHVVQQAKGQKIIQFQDSFGKVAAEVLGRINQEFPRDLKKKLSNVVNILKERNIFSKQVVNDIERSL
B7: Plxna2 35-703 (Mus musculus, UniProt P70207); chain MPQYSTFHSENRDWTFNHLTVHRRTGAVYVGAINRVYKLTGNLTIQVAHKTGPEEDNKACYPPLIVQPCSEVLTLTNNVNKLLIIDYSENRLLACGSLYQGVCKLLRLDDLFILVEPSHKKEHYLSSVNKTGTMYGVIVRSEGEDGKLFIGTAVDGKQDYFPTLSSRKLPRDPESSAMLDYELHSDFVSSLIKIPSDTLALVSHFDIFYIYGFASGGFVYFLTVQPETPDGMAINSAGDLFYTSRIVRLCKDDPKFHSYVSLPFGCTRAGVEYRLLQAAYLAKPGEALAQAFNISSDEDVLFAIFSKGQKQYHHPPDDSALCAFPIRAINLQIKERLQSCYHGEGNLELNWLLGKDVQCTKAPVPIDDNFCGLDINQPLGGSTPVEGLTLYTTSRDRLTSVASYVYNGYSVVFVGTKSGKLKKIRADGPPHGGVQYEMVSVFKDGSPILRDMAFSINQLYLYVMSERQVTRVPVESCEQYTTCGECLSSGDPHCGWCALHNMCSRRDKCQRAWEANRFAASISQCMSLEVHPNSISVSDHSRLLSLVVNDAPNLSEGIACAFGNLTEVEGQVSGSQVICISPGPKDVPVIPLDQDWFGLELQLRSKETGKIFVSTEFKFYNCSAHQLCLSCVNSAFRCHWCKYRNLCTHDPTTCSFQEGRINVSEDCPQ
B8: TIMP3 24-144 (Homo sapiens, UniProt P35625); sequence looked up; chain CTCSPSHPQDAFCNSDIVIRAKVVGKKLVKEGPFGTLVYTIKQMKMYRGFTKMPHVQYIHTEASESLCGLKLEVNKYQYLLTGRVYDGKMYTGLCNFVERWDQLTLSQRKGLNYRYHLGCN
B9: LILRB4/rat CD4 d3+4 extracellular domain 24-238 (Mus musculus); sequence looked up; chain GHLPKPIIWAEPGSVIAAYTSVITWCQGSWEAQYYHLYKEKSVNPWDTQVPLETRNKAKFNIPSMTTSYAGIYKCYYESAAGFSEHSDAMELVMTGAYENPSLSVYPSSNVTSGVSISFSCSSSIVFGRFILIQEGKHGLSWTLDSQHQANQPSYATFVLDAVTPNHNGTFRCYGYFRNEPQVWSKPSNSLDLMISETKDQSSTPTEDGLETYQK
Chain of UniProt Q05152 (whole entry, unmodified, looked up): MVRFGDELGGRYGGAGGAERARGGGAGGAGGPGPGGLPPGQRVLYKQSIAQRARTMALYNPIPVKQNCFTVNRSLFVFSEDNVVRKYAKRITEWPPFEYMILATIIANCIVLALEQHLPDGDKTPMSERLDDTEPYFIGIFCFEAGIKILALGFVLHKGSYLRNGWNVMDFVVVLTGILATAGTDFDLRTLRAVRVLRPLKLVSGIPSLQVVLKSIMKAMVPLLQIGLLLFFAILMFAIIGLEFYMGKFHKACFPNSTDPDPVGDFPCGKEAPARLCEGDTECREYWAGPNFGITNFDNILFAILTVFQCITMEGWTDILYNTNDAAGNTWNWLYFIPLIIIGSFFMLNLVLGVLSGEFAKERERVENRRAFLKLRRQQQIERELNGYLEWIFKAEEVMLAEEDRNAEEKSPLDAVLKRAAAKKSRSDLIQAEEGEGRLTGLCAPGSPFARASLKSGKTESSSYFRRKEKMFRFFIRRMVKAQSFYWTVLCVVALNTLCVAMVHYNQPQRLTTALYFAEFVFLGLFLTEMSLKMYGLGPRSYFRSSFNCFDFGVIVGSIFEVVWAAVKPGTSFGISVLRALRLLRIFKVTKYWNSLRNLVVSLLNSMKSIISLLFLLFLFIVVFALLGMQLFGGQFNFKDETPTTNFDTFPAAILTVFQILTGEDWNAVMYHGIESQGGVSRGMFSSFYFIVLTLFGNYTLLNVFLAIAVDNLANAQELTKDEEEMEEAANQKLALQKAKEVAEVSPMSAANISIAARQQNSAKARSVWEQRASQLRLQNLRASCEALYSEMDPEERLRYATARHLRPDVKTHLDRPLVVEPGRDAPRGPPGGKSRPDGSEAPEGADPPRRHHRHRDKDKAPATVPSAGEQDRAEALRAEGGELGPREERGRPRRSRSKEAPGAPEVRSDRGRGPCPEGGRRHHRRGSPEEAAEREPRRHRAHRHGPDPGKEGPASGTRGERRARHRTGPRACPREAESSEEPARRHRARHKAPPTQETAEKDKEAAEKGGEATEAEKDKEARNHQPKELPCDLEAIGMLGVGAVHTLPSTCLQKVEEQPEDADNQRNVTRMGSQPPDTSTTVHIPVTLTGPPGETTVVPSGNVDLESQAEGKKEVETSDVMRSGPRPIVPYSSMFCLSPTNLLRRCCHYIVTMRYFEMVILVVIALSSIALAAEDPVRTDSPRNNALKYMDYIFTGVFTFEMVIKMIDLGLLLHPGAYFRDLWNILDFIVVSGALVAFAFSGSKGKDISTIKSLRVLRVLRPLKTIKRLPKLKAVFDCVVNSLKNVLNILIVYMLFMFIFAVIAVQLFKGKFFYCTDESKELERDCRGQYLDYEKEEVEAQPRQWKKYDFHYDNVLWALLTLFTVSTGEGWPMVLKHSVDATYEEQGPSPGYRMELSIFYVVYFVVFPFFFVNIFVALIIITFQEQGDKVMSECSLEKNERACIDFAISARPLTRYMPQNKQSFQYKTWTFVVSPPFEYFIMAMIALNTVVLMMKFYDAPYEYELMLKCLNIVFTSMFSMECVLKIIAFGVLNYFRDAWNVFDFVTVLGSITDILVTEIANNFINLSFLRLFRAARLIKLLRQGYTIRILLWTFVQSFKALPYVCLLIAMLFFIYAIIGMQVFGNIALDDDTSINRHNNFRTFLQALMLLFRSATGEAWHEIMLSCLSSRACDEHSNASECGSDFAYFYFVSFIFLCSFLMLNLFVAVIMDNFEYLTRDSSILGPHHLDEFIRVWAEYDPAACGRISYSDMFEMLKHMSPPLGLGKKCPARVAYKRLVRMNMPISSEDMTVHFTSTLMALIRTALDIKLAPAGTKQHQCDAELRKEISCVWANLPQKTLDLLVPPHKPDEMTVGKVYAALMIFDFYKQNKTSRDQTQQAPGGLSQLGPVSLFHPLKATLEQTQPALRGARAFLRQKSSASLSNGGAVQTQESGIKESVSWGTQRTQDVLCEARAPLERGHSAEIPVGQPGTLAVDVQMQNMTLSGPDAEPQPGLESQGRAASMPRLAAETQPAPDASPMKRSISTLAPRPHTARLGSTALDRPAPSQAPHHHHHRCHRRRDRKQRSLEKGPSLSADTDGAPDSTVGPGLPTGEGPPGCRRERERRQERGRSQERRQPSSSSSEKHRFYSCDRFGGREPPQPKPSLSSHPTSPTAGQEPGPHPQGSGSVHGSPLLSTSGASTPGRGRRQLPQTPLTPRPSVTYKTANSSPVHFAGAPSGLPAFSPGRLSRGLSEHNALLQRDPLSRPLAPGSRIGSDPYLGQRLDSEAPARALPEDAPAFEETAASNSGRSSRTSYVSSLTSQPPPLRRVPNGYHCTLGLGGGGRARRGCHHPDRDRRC
Chain of UniProt P00519 (whole entry, looked up): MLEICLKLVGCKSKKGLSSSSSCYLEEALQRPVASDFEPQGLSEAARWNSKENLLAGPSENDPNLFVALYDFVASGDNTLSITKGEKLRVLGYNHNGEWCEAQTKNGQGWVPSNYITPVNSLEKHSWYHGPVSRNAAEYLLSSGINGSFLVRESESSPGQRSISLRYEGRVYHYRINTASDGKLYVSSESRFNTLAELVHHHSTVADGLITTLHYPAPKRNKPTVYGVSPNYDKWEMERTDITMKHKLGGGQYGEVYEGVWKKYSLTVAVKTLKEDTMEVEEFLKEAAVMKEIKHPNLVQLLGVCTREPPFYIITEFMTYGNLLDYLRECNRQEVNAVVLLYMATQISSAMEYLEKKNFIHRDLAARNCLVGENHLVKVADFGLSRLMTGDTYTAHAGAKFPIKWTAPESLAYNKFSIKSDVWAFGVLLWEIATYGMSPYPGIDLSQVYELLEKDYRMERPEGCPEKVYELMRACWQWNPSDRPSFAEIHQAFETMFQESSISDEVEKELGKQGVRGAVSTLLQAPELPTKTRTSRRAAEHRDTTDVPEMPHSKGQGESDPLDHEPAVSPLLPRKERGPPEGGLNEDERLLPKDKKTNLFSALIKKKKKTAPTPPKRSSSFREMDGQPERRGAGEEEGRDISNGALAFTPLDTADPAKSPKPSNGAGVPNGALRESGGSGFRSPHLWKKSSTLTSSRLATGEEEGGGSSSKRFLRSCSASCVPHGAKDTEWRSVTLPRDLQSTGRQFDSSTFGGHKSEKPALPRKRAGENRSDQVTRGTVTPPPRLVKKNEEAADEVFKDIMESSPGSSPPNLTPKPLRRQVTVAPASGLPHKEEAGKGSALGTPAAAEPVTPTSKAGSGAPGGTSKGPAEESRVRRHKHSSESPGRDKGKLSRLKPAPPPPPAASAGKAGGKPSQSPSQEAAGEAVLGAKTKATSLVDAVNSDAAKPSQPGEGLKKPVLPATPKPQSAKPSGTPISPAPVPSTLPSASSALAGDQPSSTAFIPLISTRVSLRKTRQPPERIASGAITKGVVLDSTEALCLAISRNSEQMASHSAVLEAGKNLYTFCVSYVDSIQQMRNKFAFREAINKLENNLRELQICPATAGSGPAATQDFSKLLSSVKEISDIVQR
Chain of UniProt Q8NHJ6 (whole entry, looked up): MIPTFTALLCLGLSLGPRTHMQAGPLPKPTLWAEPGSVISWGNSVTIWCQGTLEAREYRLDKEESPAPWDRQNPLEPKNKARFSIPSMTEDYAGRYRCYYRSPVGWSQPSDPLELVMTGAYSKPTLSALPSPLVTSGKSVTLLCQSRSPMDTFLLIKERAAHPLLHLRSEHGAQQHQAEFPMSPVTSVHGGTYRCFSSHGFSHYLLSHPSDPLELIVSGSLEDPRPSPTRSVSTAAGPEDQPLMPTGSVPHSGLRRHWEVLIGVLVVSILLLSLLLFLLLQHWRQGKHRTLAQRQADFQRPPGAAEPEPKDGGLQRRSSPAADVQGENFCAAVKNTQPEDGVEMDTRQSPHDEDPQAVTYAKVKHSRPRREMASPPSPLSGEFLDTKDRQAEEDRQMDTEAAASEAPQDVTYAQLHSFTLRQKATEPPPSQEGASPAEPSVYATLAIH
Chain of UniProt P10909 (whole entry, looked up): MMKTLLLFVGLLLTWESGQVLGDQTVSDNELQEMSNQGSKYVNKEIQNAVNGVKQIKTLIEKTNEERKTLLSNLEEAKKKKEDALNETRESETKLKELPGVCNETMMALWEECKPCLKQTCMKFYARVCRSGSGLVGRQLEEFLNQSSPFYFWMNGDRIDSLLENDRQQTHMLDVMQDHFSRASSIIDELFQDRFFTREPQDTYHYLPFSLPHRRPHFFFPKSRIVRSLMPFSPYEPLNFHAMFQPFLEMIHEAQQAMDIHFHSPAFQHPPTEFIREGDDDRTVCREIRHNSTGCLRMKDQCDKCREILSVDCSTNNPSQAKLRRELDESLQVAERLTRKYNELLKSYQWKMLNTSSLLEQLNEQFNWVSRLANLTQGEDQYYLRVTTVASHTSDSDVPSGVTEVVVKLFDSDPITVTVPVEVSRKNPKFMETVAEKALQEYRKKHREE
Chain of UniProt Q9Y6W5 (whole entry, unmodified, looked up): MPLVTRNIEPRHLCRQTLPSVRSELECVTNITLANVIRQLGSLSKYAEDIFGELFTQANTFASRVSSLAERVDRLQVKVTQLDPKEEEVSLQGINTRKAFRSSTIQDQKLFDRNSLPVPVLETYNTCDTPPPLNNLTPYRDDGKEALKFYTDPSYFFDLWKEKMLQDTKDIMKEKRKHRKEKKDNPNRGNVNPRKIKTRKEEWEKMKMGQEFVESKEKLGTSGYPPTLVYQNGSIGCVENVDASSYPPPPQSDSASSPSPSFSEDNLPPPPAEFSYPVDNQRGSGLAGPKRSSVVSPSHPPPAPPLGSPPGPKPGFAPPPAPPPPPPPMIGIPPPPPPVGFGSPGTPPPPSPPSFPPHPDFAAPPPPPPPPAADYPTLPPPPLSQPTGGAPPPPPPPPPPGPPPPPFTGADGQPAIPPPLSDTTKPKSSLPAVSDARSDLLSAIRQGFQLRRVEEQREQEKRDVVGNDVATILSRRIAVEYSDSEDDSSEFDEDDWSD

IGF1 (Homo sapiens, UniProt P05019)
branching points per neuron (IGF1R (Gallus gallus); process branching; embryonic spinal motoneurons; 0.1-10 nM; baseline: no hormone, higher = more branching): 1.25

clusterin, methionine sulfoxide (Homo sapiens, UniProt P10909)
maximal Aβ42 fibrillation (APP Aβ42 (UniProt P05067); ThT fluorescence; 0.3 µM, 37 °C; baseline: Aβ42 or BSA alone, higher = more fibrillation): 76%

KRRPAKAWSGRRTRLCCHRVPSPNSTNLKGHHVRLCKPCKLEPEPRLWVVPGALPQV (C10orf99 25-81 (Homo sapiens))
pEC50 (GPR15 (Homo sapiens, UniProt P49685); inhibition of forskolin-stimulated cAMP, agonist, HTRF; HEK293A-GPR15): 7.96

TPDYLMQLMNDKKLMSSLPNFSGIFNHLERLLDEEISRVRKDMYNDTLNGSTEK (Qki 14-67 C35S (Mus musculus, UniProt Q9QYS9))
melting temperature (itself; CD thermal melting; 50 µM, His-tagged): 69 °C

NRTN fragment Y119A (Homo sapiens)
maximal luciferase signal (RET 29-635 (Homo sapiens, UniProt P07949); MAPK signaling, SRE luciferase reporter, agonist; TGW neuroblastoma; higher = stronger signal): 86800 RLU

B1 (erenumab)
pA2 (CALCR/RAMP1 on cells (Homo sapiens); cAMP production, antagonist; antibody, HEK293S; one erenumab concentration, with: calcitonin): 5.34

CACNA1B fragment (Oryctolagus cuniculus)
current inhibition (CACNA1B 56-2339 (Oryctolagus cuniculus, UniProt Q05152); IBa; Xenopus oocytes): 50 % inhibition

RRRRRRC / CGSFPPWVQKTEV (peptide; cyclic, disulfide-linked poly-Arg)
koff (DLG4 309-422 (Homo sapiens, UniProt P78352); SPR; peptide): 0.0312 s⁻¹

B2 (JUN)
luciferase activity (CDK3; reporter gene, two-hybrid; HEK293; baseline: control with pG5-Luc and Cdk3, higher = more interaction): 15 fold

REC102 N-terminal MBP fusion (Saccharomyces cerevisiae, UniProt Q02721)
molecule per partner (SPO11 (Saccharomyces cerevisiae, UniProt P23179); SEC-MALS): 1

PIN1 (Homo sapiens, UniProt Q13526)
kcat (Grm5 C-terminal tail, pT1123/pS1126; isomerisation of pS1126-P, ZZ-exchange NMR; 82 µM Pin1, with: Homer1a 0.82 mM): 1 s⁻¹

B3 (Il2 Y59K)
pSTAT5+ Tregs (Il2ra (Mus musculus, UniProt P01590); flow cytometry; mouse splenocytes; baseline: wildtype IL2, higher = greater reduction): > 300 fold

Gli2 (Mus musculus, UniProt Q0VGT2)
relative binding (Mef2c (Mus musculus, UniProt Q8CFN5); co-IP; P19; baseline: P19-TAP, higher = more Gli2 pulled down): 5 fold

B4 (UGT1A9)
Vmax (COc1ccc(-c2oc3ccccc3c(=O)c2O)cc1; steady-state kinetics; pH 7.4, 37 °C): 0.0019 µmol/min/mg

MT-CO3 (Bos taurus, UniProt P00415)
urea midpoint for subunit dissociation (cytochrome c oxidase eight-subunit core (Bos taurus, UniProt P00396); anion exchange chromatography, RP-HPLC, SDS-PAGE; 10 min, pH 7.2, room temperature, apparent, single transition fit): 4.8 M

ADM2 fragment (Homo sapiens)
cAMP decay half-life (CALCRL/RAMP1 whole, on cells (Homo sapiens); cAMP, antagonist, CAMYEL BRET; COS-7): 3.08 min

SGRGK(Ac)GGKGL (histone H4 residues 1-10; acetylated K5)
ΔH (ATAD2 bromodomain 981-1108, Cys1057-Cys1079 disulfide (Homo sapiens, UniProt Q6PL18); ITC; peptide): -8.3 kcal/mol

B5 (ATF1)
interaction activity (CDK3; luciferase, two-hybrid; HEK293; 36 h; baseline: control without prey factor, higher = stronger interaction): > 15 fold

SELL (Homo sapiens, UniProt P14151)
mean rolling velocity (SELPLG 42-320 (Homo sapiens, UniProt Q14242); cell rolling; Jurkat; cell type assumed, with: DREG-55 mAb; higher = faster rolling): 112 µm/s

CD8A fragment (Homo sapiens) (sequence not shown)
koff (CEACAM5 del42-46 (Homo sapiens); SPR): 0.0015 s⁻¹

B6 (RTT103 1-131 R108N)
reduction in recruitment (RPO21 CTD, two heptad repeats, phosphoserine at both Ser2; ChIP; ADH1 gene, in cells; baseline: wild type, higher = greater reduction): 5 fold

B7 (Plxna2 35-703)
fold decrease in affinity (Sema6A ectodomain 19-571 (Mus musculus, UniProt O35464); SPR; 25 °C; baseline: plexin-coupled orientation, higher = weaker binding): > 40 fold

Vasp (Mus musculus, UniProt P70460)
bead displacement (WASF2 195-498 (Homo sapiens, UniProt Q9Y6W5); actin comet motility; baseline: ΔEVH1-VASP or no addition, higher = more displacement): 1.7 fold

MSH5 fragment del of five Pro residues (Homo sapiens)
reduction of interaction (ABL1 61-121 (Homo sapiens, UniProt P00519); β-galactosidase activity, two-hybrid; L40 yeast; baseline: wild-type hMSH5, higher = greater loss of binding): 60%

B8 (TIMP3 24-144)
Ki (ADAMTS5 262-622 (Homo sapiens, UniProt Q9UNA0); inhibitor, steady-state kinetics; 18 h, pH 7.5, 37 °C, tight-binding fit): 0.4 nM

B9
response (LILRB4 extracellular domain 22-259 (Homo sapiens, UniProt Q8NHJ6); SPR; multivalent bead assay): 1750 RU

For quick reference, copied from above:
PIN1 (Homo sapiens, UniProt Q13526)
kcat (Grm5 C-terminal tail, pT1123/pS1126; isomerisation of pS1126-P, ZZ-exchange NMR; 82 µM Pin1, with: Homer1a 0.82 mM): 1 s⁻¹

B1 (erenumab)
pA2 (CALCR/RAMP1 on cells (Homo sapiens); cAMP production, antagonist; antibody, HEK293S; one erenumab concentration, with: calcitonin): 5.34

MSH5 fragment del of five Pro residues (Homo sapiens)
reduction of interaction (ABL1 61-121 (Homo sapiens, UniProt P00519); β-galactosidase activity, two-hybrid; L40 yeast; baseline: wild-type hMSH5, higher = greater loss of binding): 60%
